Measurements from different studies.
Lines come from different studies, so protocols differ. Numbers after ± are the reported error.
Target: Transient receptor potential cation channel subfamily V member 1 (TRPV1, Homo sapiens, UniProt Q8NER1)
Chain of UniProt Q8NER1 (whole entry, looked up): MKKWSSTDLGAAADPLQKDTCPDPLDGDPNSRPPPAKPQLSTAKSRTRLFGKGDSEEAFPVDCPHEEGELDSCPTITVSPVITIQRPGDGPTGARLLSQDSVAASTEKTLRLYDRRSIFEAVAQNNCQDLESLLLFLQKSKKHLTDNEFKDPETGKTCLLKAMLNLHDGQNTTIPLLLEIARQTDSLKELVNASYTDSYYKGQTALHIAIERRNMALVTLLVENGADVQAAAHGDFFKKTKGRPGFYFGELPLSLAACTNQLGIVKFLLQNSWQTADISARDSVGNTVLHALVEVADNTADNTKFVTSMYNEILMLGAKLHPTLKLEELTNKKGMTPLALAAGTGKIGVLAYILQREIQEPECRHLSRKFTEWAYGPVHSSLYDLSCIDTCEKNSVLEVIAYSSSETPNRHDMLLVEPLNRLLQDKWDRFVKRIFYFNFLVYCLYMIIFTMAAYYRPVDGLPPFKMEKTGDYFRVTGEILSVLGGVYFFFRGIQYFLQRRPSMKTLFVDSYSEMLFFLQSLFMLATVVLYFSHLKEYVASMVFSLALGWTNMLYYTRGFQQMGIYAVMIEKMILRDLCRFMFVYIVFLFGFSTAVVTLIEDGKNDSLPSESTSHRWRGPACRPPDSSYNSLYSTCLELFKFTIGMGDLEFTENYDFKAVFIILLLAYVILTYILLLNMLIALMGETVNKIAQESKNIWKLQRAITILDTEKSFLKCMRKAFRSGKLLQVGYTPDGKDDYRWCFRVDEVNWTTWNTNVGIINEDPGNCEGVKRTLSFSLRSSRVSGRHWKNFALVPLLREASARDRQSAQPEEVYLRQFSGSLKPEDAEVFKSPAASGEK

Structure (SMILES)	test	test system	setting	scale	quantity	result
Cc1cccc(N(C(=O)NCc2ccc(C(F)(F)F)nc2N2CCC(C)CC2)c2ccc(NS(C)(=O)=O)c(F)c2)c1	45Ca2+ uptake, agonist	CHO expressing human TRPV1		relative to: capsaicin 1 µM maximal response	EC50	> 3 µM
[3H]CC1([3H])CCN(c2nc(C(F)(F)F)ccc2CNC(=O)Nc2cccc3c2OCC(=O)N3)CC1	radioligand binding		no PMA or cyclosporin A		Kd	0.000534 ± 9.7e-05 µM
CN(C)C1(Cc2ccccc2)CCN(c2cc(C(F)(F)F)ccc2CNC(=O)Nc2cccc3c2CC(O)CC3)CC1 (stereo not drawn)	45Ca2+ uptake, antagonist	CHO expressing human TRPV1	together with: 30 nM capsaicin		Ki	0.0101 µM
CC(C(=O)NCc1ccc(C(F)(F)F)nc1Oc1ccccc1)c1ccc(NS(C)(=O)=O)c(F)c1 (stereo not drawn)	calcium influx, antagonist, FLIPR	CHO	together with: low pH		IC50	1 to 10 µM
CN(C)C1(Cc2ccccc2)CCN(c2cc(C(F)(F)F)ccc2CNC(=O)Nc2cccc3ccc(O)cc23)CC1	45Ca2+ uptake, antagonist	CHO expressing human TRPV1	together with: 30 nM capsaicin		Ki	0.0089 µM
CCCC(CCC)Oc1nc(C(F)(F)F)ccc1CNC(=O)C(C)c1ccc(NS(C)(=O)=O)c(F)c1 (stereo not drawn)	calcium influx, antagonist, FLIPR	CHO cells	together with: low pH		IC50	1 to 10 µM
CC1CCN(c2nc(C(F)(F)F)ccc2CNC(=O)C(C)c2ccc(NS(C)(=O)=O)c(F)c2)CC1 (stereo not drawn)	45Ca2+ uptake, agonist	CHO expressing human TRPV1		relative to: capsaicin 1 µM maximal response	EC50	> 3 µM
COc1nc(C(F)(F)F)ccc1CNC(=O)C(C)c1ccc(NS(C)(=O)=O)c(F)c1 (stereo not drawn)	calcium influx, antagonist, FLIPR	CHO	together with: low pH		IC50	1 to 10 µM
CC1CCN(c2nc(C(F)(F)F)ccc2CNC(=O)NCc2ccc(CNS(C)(=O)=O)c(F)c2)CC1	45Ca2+ uptake, agonist	CHO expressing human TRPV1		relative to: capsaicin 1 µM maximal response	EC50	> 3 µM

For quick reference, copied from above:
Structure (SMILES)	test	test system	setting	scale	quantity	result
CCCC(CCC)Oc1nc(C(F)(F)F)ccc1CNC(=O)C(C)c1ccc(NS(C)(=O)=O)c(F)c1 (stereo not drawn)	calcium influx, antagonist, FLIPR	CHO cells	together with: low pH		IC50	1 to 10 µM
